Results pooled from the literature.
Lines come from different studies, so protocols differ. ± marks the error that the study gave.

| Structure (SMILES) | tested on | assay | system | conditions | scale | endpoint | value |
| --- | --- | --- | --- | --- | --- | --- | --- |
| CN1CC[C@@H](c2c(O)cc(O)c3c(=O)cc(-c4ccc(C(F)(F)F)cc4Cl)oc23)[C@@H]1CO |  | measured: Leukopenia | relapsed B-cell malignancies | oral, 100 mg, grade 3-4, intermittent dosing |  | patients with adverse event | 0% |
| O=[N+]([O-])c1ccc(N2CCC(NCCC(O)c3ccc(F)c4ccccc34)CC2)c(C(F)(F)F)c1 (stereo not drawn) | Salmonella typhimurium | SOS response, SOS/umu test | TA1535/pSK1002, TGA medium | 0.000244 mg/mL, 4 h, without S9 | reference: untreated | induction factor | 0.5 |
| CO[C@H]1C[C@@H]2CC[C@@H](C)[C@@](O)(O2)C(=O)C(=O)N2CCCC[C@H]2C(=O)O[C@H]([C@H](C)C[C@@H]2CC[C@@H](OC(=O)NCCOCCOCCOCCOCCOCCOCCOCCOCCC(=O)N3CCc4cc(Cn5nc(-c6ccc7oc(N)nc7c6)c6c(N)ncnc65)ccc4C3)[C@H](OC)C2)C[C@@H](O)[C@H](C)/C=C(\C)[C@@H](O)[C@@H](OC)C(=O)[C@H](C)C[C@H](C)/C=C/C=C/C=C/1C |  |  | patients with advanced solid tumours | intravenous, 6 mg weekly, any grade |  | constipation incidence | 25% |
| COc1cccc(-c2n[nH]c(SCc3ccccn3)n2)c1OC | Salmonella typhimurium | Ames test, plate incorporation | TA98 | 0.25 mg/plate, without S9 |  | revertant colonies per plate | 15 |
| Cc1ncc2n1-c1ccc(Cl)cc1C(c1ccccc1F)=NC2 |  |  | wild-type mouse, plasma | intravenous, 0.3 mg/kg, 3-day vehicle pretreatment |  | AUC(0-90 min) | 0.0332 ± 0.00293 µM·h |
| CC[C@H](C)[C@H](NC(=O)[C@H](CCCNC(=N)N)NC(=O)[C@H](CCCNC(=N)N)NC(=O)[C@@H](N)CCCNC(=N)N)C(=O)N[C@@H](CO)C(=O)N[C@@H](Cc1ccccc1)C(=O)N[C@@H](CC(C)C)C(=O)NCC(=O)N[C@@H](CO)C(=O)N[C@@H](CCCCN)C(=O)N[C@H](C(=O)N[C@H](C(=O)N[C@H](C(=O)N[C@@H](CC(C)C)C(=O)N[C@@H](CC(C)C)C(=O)N[C@@H](CCCCN)C(=O)N[C@@H](CCCNC(=N)N)C(=O)N[C@@H](CCCNC(=N)N)C(=O)N[C@@H](CCCNC(=N)N)C(=O)N[C@@H](CCCNC(=N)N)C(N)=O)C(C)C)C(C)C)C(C)C | human erythrocytes |  |  | 400 µM, 1 h | reference: Triton X-100 | hemolysis | 13% |
| COc1cc2c(Oc3ccc4[nH]c(C)cc4c3F)ccnc2cc1OCC1(N)CC1 |  |  | paediatric recurrent refractory sarcoma | 10 mg |  | grade 1 or 2 Hematochezia | 0% |
| CC[C@H](C)[C@H](NC(=O)[C@H](CC(C)C)NC(=O)[C@H](CCCCN)NC(=O)[C@H](CCCCN)NC(=O)[C@H](CCCCN)NC(=O)[C@H](CCCCN)NC(=O)[C@H](CC(C)C)NC(=O)[C@@H](NC(=O)[C@@H](NC(=O)[C@@H](NC(=O)[C@H](CC(C)C)NC(=O)[C@H](CCCNC(=N)N)NC(=O)[C@H](CO)NC(=O)[C@@H](N)CO)C(C)C)[C@@H](C)CC)[C@@H](C)CC)C(=O)N[C@@H](CO)C(=O)N[C@@H](CCCCN)C(=O)N[C@@H](CCCCN)C(=O)N[C@@H](CCCCN)C(=O)N[C@@H](CCCCN)C(N)=O | human erythrocytes |  |  | 400 µM, 1 h | reference: Triton X-100 | hemolysis | 10% |
| O=C(/C=C/c1ccc(O)c2oc(-c3ccc(O)c(O)c3)cc12)O[C@H](Cc1ccc(O)c(O)c1)C(=O)O | 293T-ACE2 | cytotoxicity, MTT |  | 48 h, 50% serum |  | CC50 | > 100 µM |

Repeated from above:
| Structure (SMILES) | tested on | assay | system | conditions | scale | endpoint | value |
| --- | --- | --- | --- | --- | --- | --- | --- |
| COc1cccc(-c2n[nH]c(SCc3ccccn3)n2)c1OC | Salmonella typhimurium | Ames test, plate incorporation | TA98 | 0.25 mg/plate, without S9 |  | revertant colonies per plate | 15 |
